Experimental data collected from several papers.
Numbered parts are unrelated; each lists some results of a single study. Positions count from the first letter of the parent shown.

Block 1
Target: CREB3L3, bZIP domain (human)
Method: DHFR protein complementation
Sample: yeast
Setting: single substitutions, most at no-binding floor
Reference: wild-type JUN-FOS pair
Direction: higher = stronger binding
Endpoint: binding fitness
Starting sequence: JUN, bZIP domain (human); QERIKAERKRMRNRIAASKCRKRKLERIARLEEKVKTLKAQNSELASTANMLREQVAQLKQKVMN; partner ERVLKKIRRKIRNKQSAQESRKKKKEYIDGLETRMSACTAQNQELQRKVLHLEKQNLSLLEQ
V35L: -1.55 natural log
A40R: -1.41 natural log
N42S: -1.48 natural log
L31T: -1.53 natural log
K39S: -1.44 natural log
V35N: -1.51 natural log
S47V: -1.27 natural log
N42G: -1.46 natural log
T48A: -1.47 natural log
E32P: -1.49 natural log
A29L: -1.44 natural log
T48Y: -1.62 natural log
T48G: -1.39 natural log
V35S: -1.43 natural log

Block 2
Target: Histone acetyltransferase KAT6A, winged helix 1, GST fusion (KAT6A, Homo sapiens, UniProt Q92794, residues 1-85)
Method: protein binding microarray
Molecule type: double-stranded DNA, one strand shown
Sample: in vitro
Concentration: not given
Setting: 8-mer, flanks averaged, mean of 2 arrays, mostly near background
Reference: not given
Direction: higher = stronger binding
Endpoint: E-score
Construct (chain): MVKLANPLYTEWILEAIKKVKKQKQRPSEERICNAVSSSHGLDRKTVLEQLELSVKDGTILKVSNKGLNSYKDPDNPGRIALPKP
GCGAAAAC: 0.138
TCGAGTCA: -0.0391
AGACGATA: -0.182
AAGAGCGC: 0.267
AGCAGGAC: -0.181
GAACGTAC: -0.0125
CGCATACA: 0.171
AGGTTGTG: -0.255
TAAGATGA: -0.19
AGGTTTGG: -0.113
AGAATAAG: -0.264
GGGTATCA: -0.162
CCAAGAAG: -0.124
AGCTTGAG: -0.172
AACCGCGT: 0.351
GCCCATCC: -0.101
CAGGATTC: -0.154
CTACCCTC: 0.0222
CGCGTTCC: 0.365
TCCAATAA: 0.0302
CAACATCA: -0.132
CACCAGTC: -0.144
GATTTTCC: -0.0129
CGTCGCGA: 0.337
ACGAGTAT: -0.0294

Block 3
Target: Sal-like protein 4, full length isoform A (SALL4, Homo sapiens, UniProt Q9UJQ4, residues 1-1053)
UniProt Q9UJQ4, sequence (whole entry, looked up): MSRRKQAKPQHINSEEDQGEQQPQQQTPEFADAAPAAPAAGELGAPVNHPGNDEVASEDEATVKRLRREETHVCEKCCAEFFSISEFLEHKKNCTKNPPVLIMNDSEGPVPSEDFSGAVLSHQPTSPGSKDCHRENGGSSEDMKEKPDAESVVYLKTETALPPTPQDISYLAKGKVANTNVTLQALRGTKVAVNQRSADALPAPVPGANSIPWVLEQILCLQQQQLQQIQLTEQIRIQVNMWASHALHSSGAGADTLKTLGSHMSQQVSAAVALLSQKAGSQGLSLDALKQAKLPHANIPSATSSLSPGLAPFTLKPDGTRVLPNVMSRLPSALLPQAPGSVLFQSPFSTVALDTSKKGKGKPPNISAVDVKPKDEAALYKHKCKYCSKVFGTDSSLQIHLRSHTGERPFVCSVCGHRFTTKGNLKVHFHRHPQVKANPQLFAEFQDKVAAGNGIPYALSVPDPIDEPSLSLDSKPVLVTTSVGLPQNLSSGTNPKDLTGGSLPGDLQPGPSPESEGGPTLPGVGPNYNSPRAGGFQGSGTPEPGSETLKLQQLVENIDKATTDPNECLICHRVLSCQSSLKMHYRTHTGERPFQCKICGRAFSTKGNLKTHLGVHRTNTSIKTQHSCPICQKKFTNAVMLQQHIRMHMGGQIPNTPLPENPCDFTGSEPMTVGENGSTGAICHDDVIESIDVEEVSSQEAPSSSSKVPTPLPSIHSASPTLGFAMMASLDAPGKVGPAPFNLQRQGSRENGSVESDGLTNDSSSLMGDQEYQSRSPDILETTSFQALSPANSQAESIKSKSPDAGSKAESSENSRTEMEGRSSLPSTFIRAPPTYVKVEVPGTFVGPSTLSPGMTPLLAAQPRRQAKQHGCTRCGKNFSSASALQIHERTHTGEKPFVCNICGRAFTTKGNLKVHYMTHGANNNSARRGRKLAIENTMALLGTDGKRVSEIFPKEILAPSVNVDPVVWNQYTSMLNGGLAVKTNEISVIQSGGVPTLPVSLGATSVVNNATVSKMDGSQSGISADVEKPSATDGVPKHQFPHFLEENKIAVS
Method: universal PBM
Molecule type: double-stranded DNA, one strand shown
Sample: in vitro
Concentration: 600 nM
Setting: 8-mer, flanks averaged, mean of replicates
Direction: higher = stronger binding
Endpoint: E-score
GTGTCCCA: -0.251
ATAAAGCA: 0.238
ATGATCGG: 0.0832
ATAGTTGG: 0.149
GCTCCTAA: -0.174
CATGCCGG: -0.0973
CTAAACGC: -0.0629
AGCAAACT: 0.091
CAGAAGAA: -0.0863
TAGACTCA: 0.0597
ACCTGCTG: -0.0112
AACACAAG: -0.0279
AAACTGGG: -0.201
AATAAATT: 0.406
AGACGTAG: 0.0222
AGCTTCCT: -0.00859
GAATGGAA: 0.0303
ATTAGAGA: 0.168
AGTTCGCA: -0.154
CGCATACC: -0.047
CGTCGTAC: -0.00473
GAATACGA: 0.227
GATGTGAA: 0.227

Block 4
Target: RNA binding protein fox-1 homolog 2, RRM domain, GST-SBP tag (RBFOX2, Homo sapiens, UniProt O43251-10, residues 100-194)
Method: RNA Bind-n-Seq
Molecule type: RNA
Sample: in vitro
Concentration: 365 nM
Setting: natural RNA segment, single round, ends assumed
Reference: no-protein control
Direction: higher = stronger binding
Endpoint: RBNS enrichment (R)
Shared flanks, not repeated: GGGAGUUCUACAGUCCGACGAUC … UGGAAUUCUCGGGUGCCAA
Residues (chain): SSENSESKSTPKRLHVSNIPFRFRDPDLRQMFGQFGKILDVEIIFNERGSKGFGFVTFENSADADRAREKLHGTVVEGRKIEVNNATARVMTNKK
GAAUGAAUCCAGGGUUUUUCUACUGUUCGUCUGUCCAGGGGUCCCUGAGAUCUGGGCUCCCUUACAUUCUAGACCUAUGUCCCCCCCCAUGGAAGAGAAGAGAAGAAUGA: 0.736
AGAUGGCCAUAGGAGAGGAGGGUUCCUCUUAGGUCAGAUGGAGGUUCUCAGAGCCAAGUCCUCCCUCUCUACUGGAGUGGAAGGUCUAUUGGCCAACAAUCCUUUCUGCC: 0.305
CUUGACCGAAAGUUACAAGGACCCCAACCCCUUUGUCCUCUCUACCCACAGAUGGCCCUGGGAAUCAAUUCCUCAGGAAUUGCCCUCAAGAACUCUGCUUCUUGCUUUGC: 0.399
ACUGUGGACGCCGGGCACUGUUGGAAACGAAGUUUUGUAAUUUCUGCCUGAUUCACCCUUAUUGGCAUGUGAGCCAUUGGGAUGCCAUUGAGAAUCAUGAUGAACUUUGG: 1.2
UUGCUCUGAAUUUGUAAAUAAGUCUUCCCCAUUCCUCAUACUCGAGCCUCUCCUCUCUGGUUGCCUCCUGCCACCAGCAUCCAUGGCUCAUUUGACACCUUUUUAAAUAU: 0.718
UUAAUGGCUUUGAUUUGUGCUCUAAAGCAAAGCAAAUAACACAGGUUAAUGGUAACUUGUUGUUCUCCUGAUCUAACUGAGUACCACCUUUGGUGUUAAGUGUCAUUGUU: 0.271
CCAACUGAAUAAGAGUUUGUAUUGUGUGUGUGUUCCUUGAAACCAAUGAUUUUCAAACUUUACAGCUUCAGAAUCACCCAGAGGGCUUGUUAAGACACUACUUGGUGGAC: 0.29
GGACAUCCACUGCCACGCCAAACUCAACUUACCAAUACAUUACGGCCUUGAAAGGGAGCAGAGAGUGGCUGGAGAAUCAAUUCUGACACCGGCUAAAGUUGCAGCUGUUG: 0.411
GCUCUGACCGUUCCCACCACCAUCUGCAUGUCCCCACUGGGCCUGAGUCUAGCCUGGGAGCCAGGAUACUGGGGUCCUUUUCCCACUCUUCCACUGACUUGCUGUGUGAC: 11.2
UUGAGGUUGAGCCUUUUUGAGUAUUUAAGAUAUAUAUACCAACGAAACUAUUCUCGCAAGGAAAACAUUGCCACCAUUUGUAGAACAUGUAAUCUUCAAGUAUGUGCUAU: 0.584
UGGACAGCAAAUUUUUGUCUUAAUAAAAUGUUUUUCGUAAUCAUGCAGGUCAAGUGUAGGGUUGUCAGAGAACAUGGCGCUCUUGGGUGCACCUGUUUGUUCUGCUAGGU: 0.367
CUUAGCCUGCCCUGCUUCCAAGCGACGGCCAUCCCAGUAGGGGACUUUCCCACACUGUGCCUUUACGAUCAGCGUGACAGAGUAGAAGCUGGAGUGCCUCACCACACGGC: 0.324

Block 5
Target: Centromere-binding protein 1, full length, His-tagged (CBF1, Saccharomyces cerevisiae, UniProt P17106, residues 1-351)
UniProt P17106, sequence (whole entry, looked up): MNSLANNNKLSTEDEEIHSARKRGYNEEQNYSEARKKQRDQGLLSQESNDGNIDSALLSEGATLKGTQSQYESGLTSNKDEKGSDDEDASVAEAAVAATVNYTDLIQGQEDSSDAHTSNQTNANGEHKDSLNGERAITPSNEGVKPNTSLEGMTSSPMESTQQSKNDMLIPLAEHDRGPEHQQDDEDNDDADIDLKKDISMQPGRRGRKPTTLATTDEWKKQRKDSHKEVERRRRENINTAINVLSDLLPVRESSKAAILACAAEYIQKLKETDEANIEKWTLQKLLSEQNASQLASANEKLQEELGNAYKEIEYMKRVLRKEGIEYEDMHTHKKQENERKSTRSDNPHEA
Method: competition protein-binding microarray
Molecule type: double-stranded DNA, one strand shown
Sample: in vitro
Concentration: 2 µM
Setting: whole 60-bp probe, lowest competitor level
With: Pho4 competitor, 0.05 µM
Direction: higher = stronger binding
Endpoint: fluorescence intensity
Shared flanks, not repeated: … GTCTTGATTCGCTTGACGCTGCTG
AAAGCGGTAATTTTTCACGTGACATCACATATCTAT: 5910 a.u.
TGCGCAACAACTTCACACGTGTTTTTATGTCTAGAA: 1320 a.u.
TATTGCAGCTGGTCCCACGTGGGTAAGCGGTTGGCG: 589 a.u.
GTCTTGTCTCATTGCCTGGTGGGTGTCCCCACTTCA: 61.5 a.u.
TAACGATGTCATTGCCACGTGGAACATCTTGATTGG: 840 a.u.
CATACCCAACCTTGTCACAAAACTTAAGATATTTGT: 86.6 a.u.
CTTCTGTAAATTTTTCACGTGCGGTGAAGCGCCCCG: 813 a.u.
TGACATTGCTCGAGTCACGTTCAGAAAACGAGAAGA: 436 a.u.
CGTTGTCGATTTTCACACGTGCAAACAATGAGGTTG: 1810 a.u.
CTTCTGTAAATTTTTCACGTGGCGTGAAGCGCCCCG: 683 a.u.
CTTTCCCGATCTTGCGCCGTGGGTGTAGCACATTTG: 90 a.u.
CTGCTTTCGTTTCGCCAGGTGATTCTGTTGCCATTA: 88.7 a.u.
CTTTCCCGATCTTGTCACCGCACTTTAGCACATTTG: 73.9 a.u.
CGTCCTAGTGATTGCAGCGTGGGTGCCATGAGGAAG: 74.1 a.u.
AACGGGTTTCGAGATCTCGTGAGGATGGTTTTGGAA: 169 a.u.

Block 6
Target: CCNB2, cyclin fold, Cln2 fusion (human)
Method: yeast growth competition, sequencing
Sample: yeast
Setting: weak parent motif
Reference: not given
Direction: higher = stronger binding
Endpoint: normalised enrichment score
Starting sequence: KIF20B docking peptide (human); KRAKRKLYTSEIS; partner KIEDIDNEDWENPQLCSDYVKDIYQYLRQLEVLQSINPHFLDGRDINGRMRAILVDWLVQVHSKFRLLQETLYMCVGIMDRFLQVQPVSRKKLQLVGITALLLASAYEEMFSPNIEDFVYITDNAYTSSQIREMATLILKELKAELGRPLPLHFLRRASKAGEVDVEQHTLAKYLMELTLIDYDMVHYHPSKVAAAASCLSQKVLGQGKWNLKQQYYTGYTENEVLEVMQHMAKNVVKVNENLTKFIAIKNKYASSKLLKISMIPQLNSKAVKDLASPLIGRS
E11A: 0.997
K1A: 0.546
L7A: 0.708
S10A: 0.389
S13A: 0.865
R5A: 0.0128

Further values, each from its own experiment
PhoQ, residues 284 288 289 292 302 303 NLMGRA — fold induction (PhoP, residues 12 14 15 18 19 TPLRH (Escherichia coli, UniProt P23836); Sort-seq, measured: YFP reporter; E. coli; PhoQ-PhoP variant library, with: 10 µM Mg2+; reference: high Mg2+ state, higher = stronger signaling): 1.27

Repeated from above (block 5):
AAAGCGGTAATTTTTCACGTGACATCACATATCTAT: 5910 a.u.
CTTCTGTAAATTTTTCACGTGCGGTGAAGCGCCCCG: 813 a.u.
CATACCCAACCTTGTCACAAAACTTAAGATATTTGT: 86.6 a.u.
TATTGCAGCTGGTCCCACGTGGGTAAGCGGTTGGCG: 589 a.u.
CGTCCTAGTGATTGCAGCGTGGGTGCCATGAGGAAG: 74.1 a.u.
